Results from different studies.
Lines come from different studies, so protocols differ. ± marks the error that the study gave.

| Compound | system | setting | scale | quantity | value |
| --- | --- | --- | --- | --- | --- |
| CC[C@H](C)[C@H](NC(=O)[C@H](CC(C)C)NC(=O)[C@H](Cc1c[nH]c2ccccc12)NC(=O)[C@H](CCC(N)=O)NC(=O)[C@@H](NC(=O)[C@H](Cc1ccccc1)NC(=O)[C@H](C)NC(=O)[C@H](CCCCNC(=O)COCCOCCNC(=O)COCCOCCNC(=O)CC[C@H](NC(=O)CCCCCCCCCCCCCCCCCCC(=O)O)C(=O)O)NC(=O)[C@H](CCC(N)=O)NC(=O)[C@H](C)NC(=O)[C@@H](NC(=O)[C@H](CCCCN)NC(=O)[C@H](CC(=O)O)NC(=O)[C@H](CC(C)C)NC(=O)C(C)(C)NC(=O)[C@@H](NC(=O)[C@H](CO)NC(=O)[C@H](Cc1ccc(O)cc1)NC(=O)[C@H](CC(=O)O)NC(=O)[C@H](CO)NC(=O)[C@@H](NC(=O)[C@H](Cc1ccccc1)NC(=O)[C@@H](NC(=O)CNC(=O)[C@H](CCC(=O)O)NC(=O)C(C)(C)NC(=O)[C@@H](N)Cc1ccc(O)cc1)[C@@H](C)O)[C@@H](C)O)[C@@H](C)CC)[C@@H](C)CC)C(C)C)C(=O)N[C@@H](C)C(=O)NCC(=O)NCC(=O)N1CCC[C@H]1C(=O)N[C@@H](CO)C(=O)N[C@@H](CO)C(=O)NCC(=O)N[C@@H](C)C(=O)N1CCC[C@H]1C(=O)N1CCC[C@H]1C(=O)N1CCC[C@H]1C(=O)N[C@@H](CO)C(N)=O | human, plasma | subcutaneous, 10 mg, week 8, geometric mean |  | CL/F | 0.0311 L/h |
| C[C@@H]1CC[C@H]2[C@@H](C)C(=O)O[C@@H]3O[C@@]4(C)CC[C@@H]1[C@]32OO4 | human, male, plasma | oral, dose not given, day 2 |  | CL/F | 258 ± 73.3 mL/min/kg |
| O[C@H]1CCCN[C@@H]1CCCn1cnc2c(Cl)c(Cl)ccc21 | healthy human, plasma | oral, 150 mg twice daily, steady state |  | CL/F | 152 L/h |
| Cc1ncc2n1-c1ccc(Cl)cc1C(c1ccccc1F)=NC2 | human | oral, substrate with omaveloxolone, with: omaveloxolone once daily |  | CL/F | 130 L/h |
| COc1ccc2c(c1)[C@]13CCCC[C@@H]1[C@H](C2)N(C)CC3 | human female | dose not given, day 22 | relative to: day 0 | CL/F change | -10.7% |
| CCN(CC)C(=O)[C@@H]1C=C2c3cccc4[nH]cc(c34)C[C@H]2N(C)C1 | human, plasma | dose not given, after placebo pretreatment |  | CL/F | 6.9 L/h |
| Cc1nnc2n1-c1ccc(Cl)cc1C(c1ccccc1)=NC2 | human female | dose not given, day 22 | relative to: day 0 | CL/F change | 4% |
| CC(C)c1nc(N(C)S(C)(=O)=O)nc(-c2ccc(F)cc2)c1/C=C/[C@@H](O)C[C@@H](O)CC(=O)O | healthy human subjects, plasma | oral, 20 mg, day 1, alone, geometric mean |  | CL/F | 408 L/h |

Repeated from above:
| Compound | system | setting | scale | quantity | value |
| --- | --- | --- | --- | --- | --- |
| Cc1ncc2n1-c1ccc(Cl)cc1C(c1ccccc1F)=NC2 | human | oral, substrate with omaveloxolone, with: omaveloxolone once daily |  | CL/F | 130 L/h |
